Measurements from different studies.
Each line is one published result; not all experiments were run side by side. Values joined by “and” are separate records of one study, mostly repeats; a detail may differ. Numbers after ± are the reported error.
Sequence of UniProt Q16539 (whole entry, looked up): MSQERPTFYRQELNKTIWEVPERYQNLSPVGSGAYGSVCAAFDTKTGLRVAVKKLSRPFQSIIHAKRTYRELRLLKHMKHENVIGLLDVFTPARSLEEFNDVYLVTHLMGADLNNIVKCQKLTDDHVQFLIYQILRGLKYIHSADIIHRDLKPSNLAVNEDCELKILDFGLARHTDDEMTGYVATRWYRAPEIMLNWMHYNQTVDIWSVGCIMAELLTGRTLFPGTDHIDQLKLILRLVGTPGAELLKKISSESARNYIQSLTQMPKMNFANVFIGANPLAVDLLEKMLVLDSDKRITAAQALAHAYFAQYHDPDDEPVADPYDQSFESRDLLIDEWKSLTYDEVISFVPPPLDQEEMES
Sequence of UniProt P30988 (whole entry, looked up): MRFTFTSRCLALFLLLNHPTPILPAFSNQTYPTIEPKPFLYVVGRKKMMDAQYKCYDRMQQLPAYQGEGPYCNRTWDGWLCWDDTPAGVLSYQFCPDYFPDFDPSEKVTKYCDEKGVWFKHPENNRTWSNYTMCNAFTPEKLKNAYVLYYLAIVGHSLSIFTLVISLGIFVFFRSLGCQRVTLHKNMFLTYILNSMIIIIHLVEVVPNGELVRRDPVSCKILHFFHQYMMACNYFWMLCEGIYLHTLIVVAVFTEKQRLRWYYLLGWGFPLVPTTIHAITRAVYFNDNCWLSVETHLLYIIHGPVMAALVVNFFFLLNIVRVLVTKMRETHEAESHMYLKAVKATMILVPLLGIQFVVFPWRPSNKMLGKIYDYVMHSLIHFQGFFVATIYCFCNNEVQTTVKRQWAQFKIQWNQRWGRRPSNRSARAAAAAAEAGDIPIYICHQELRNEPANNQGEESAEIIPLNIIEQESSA

SMILES | tested on | assay | system | setting | scale | endpoint | result
COc1cc2c(Oc3ccc4[nH]c(C)cc4c3F)ccnc2cc1OCC1(N)CC1 | – | – | paediatric recurrent refractory sarcoma | 8 mg | – | grade 3 TBIL elevation | 0%
COC(=O)[C@H]1[C@@H](OC(=O)c2ccccc2)C[C@@H]2CC[C@H]1N2C | – | self-administration | male Sprague-Dawley rat | intravenous | – | dose with highest response rate | 0.32 mg/kg/injection
C#CCN(C)[C@H](C)Cc1ccccc1 | – | footprint test | MPTP-induced Parkinson's disease mouse model | 10 mg/kg | – | stride length | 6.15 cm and 6.36 cm and 6.45 cm and 5.73 cm and 5.95 cm and 4.74 cm and 4.83 cm and 7.31 cm
Nc1ncnc2c1ncn2[C@@H]1O[C@@H]2COP(=O)(O)O[C@H]3[C@@H](O)[C@H](n4cnc5c(=O)[nH]cnc54)O[C@@H]3COP(=O)(O)O[C@H]2[C@H]1O | West Nile virus | RNA sequencing Reactome analysis, item: Collagen formation (R-HSA-1474290) | HFF-1 | concentration not given, downregulated pathways, added: West Nile virus infection | reference: WNV-infected without compound | fold enrichment | 6.35
CC[C@H](C)[C@H](NC(=O)[C@H](Cc1ccccc1)NC(=O)[C@H](CCC(=O)O)NC(=O)[C@H](CCCNC(=N)N)NC(=O)[C@H](C)NC(=O)[C@H](C)NC(=O)[C@H](CCC(N)=O)NC(=O)[C@H](CCC(=O)O)NC(=O)[C@H](CCC(=O)O)NC(=O)[C@H](CC(C)C)NC(=O)[C@H](Cc1ccc(O)cc1)NC(=O)[C@H](CO)NC(=O)[C@H](CO)NC(=O)[C@@H](NC(=O)[C@H](CC(=O)O)NC(=O)[C@H](CO)NC(=O)[C@@H](NC(=O)[C@H](Cc1ccccc1)NC(=O)[C@@H](NC(=O)CNC(=O)[C@H](CCC(=O)O)NC(=O)[C@H](C)NC(=O)CCc1c[nH]cn1)[C@@H](C)O)[C@@H](C)O)C(C)C)C(=O)N[C@@H](C)C(=O)N[C@@H](Cc1c[nH]c2ccccc12)C(=O)N[C@@H](CC(C)C)C(=O)N[C@H](C(=O)N[C@@H](CCCNC(=N)N)C(=O)NCC(=O)N[C@@H](CCCNC(=N)N)C(=O)N[C@@H](CCCCNC(=O)COCCOCCNC(=O)COCCOCCNC(=O)CC[C@H](NC(=O)CCCCCCCCCCCCCCCCC(=O)O)C(=O)O)C(=O)NCC(=O)NCC(=O)N[C@@H](CO)C(=O)N[C@@H](CCCCNc1c(NCCCCCN(O)C(=O)CCC(=O)NCCCCCN(O)C(=O)CCC(=O)NCCCCCN(O)C(C)=O)c(=O)c1=O)C(=O)O)C(C)C [zirconium-89 labelled] | – | – | rat, colon | sc, 3 nmol/kg, 72 h, ex vivo | – | tissue uptake | 0.14 %ID/g
Cc1ncc2n1-c1ccc(Cl)cc1C(c1ccccc1F)=NC2 | – | self-administration, progressive-ratio schedule | rhesus monkey | intravenous | – | Emax | 103%
CCCCNCCc1c[nH]c2cccc(O)c12.O=C(O)/C=C/C(=O)O | – | – | C57BL/6J mice | subcutaneous, 10 mg/kg | reference: pre-session baseline | body temperature change | -0.4 ± 0.2 °C
COc1ccc2[nH]cc(CCN(C)C)c2c1 | – | DOM stimulus generalization | rat trained on DOM | intraperitoneal, 15 min pretreatment, training dose 1.0 mg/kg DOM | – | ED50 | 0.86 mg/kg
COc1cc(CCC[P+](c2ccccc2)(c2ccccc2)c2ccccc2)c(OC)c2c1OCO2.[I-] | NCI/ADR-RES | SRB | – | – | – | Log10TGI | > -4 log M
C=CCN1CC[C@]23c4c5ccc(O)c4O[C@H]2C(=O)CC[C@@]3(O)[C@H]1C5 | – | formalin test | male ICR-CD1 mice | sc, 5 mg/kg, 25 to 30 min | – | paw licking time | 38 s and 59 s and 48 s and 67 s
CC(C)C[C@H](CN)CC(=O)O | – | whole-cell current clamp | DRG neurons, rat, spinal cord injury | 10 µM, overnight, added: nimodipine 5 µM | – | action potential threshold | -46.1 mV and -26.9 mV and -38.3 mV and -39.8 mV and -36 mV and -30.7 mV
COc1cc(Nc2ncc(F)c(Nc3ccc4c(n3)NC(=O)C(C)(C)O4)n2)cc(OC)c1OC | Calcitonin receptor (CALCR, Homo sapiens, UniProt P30988) | – | – | – | – | IC50 | > 10 µM
Cl.N#Cc1ccc(C(=O)N[C@H]2CC[C@@]3(O)[C@H]4Cc5ccc(O)c6c5[C@@]3(CCN4CC3CC3)[C@H]2O6)s1 | – | antagonist, warm-water tail immersion | Swiss Webster mouse | subcutaneous, added: morphine 10 mg/kg s.c. | – | AD50 | 8.18 mg/kg
CC[C@H](C)[C@@H]1NC(=O)[C@@H]2CCCN2C(=O)[C@H](CC(C)C)NC(=O)[C@H](CC(C)C)NC(=O)CNC(=O)[C@@H](NC(=O)[C@@H](NC(=O)[C@H](CC(=O)O)NC(=O)CNC(=O)[C@@H](NC(=O)[C@H](C)NC(=O)CNC(=O)[C@H](CCCCN)NC(=O)[C@H](CC(C)C)NC(=O)[C@H](CC(C)C)NC(=O)[C@H](CCCCN)NC(=O)CNC(=O)[C@@H](NC(=O)[C@@H](N)CC(C)C)C(C)C)C(C)C)C(C)C)CSSC[C@@H](C(=O)O)NC1=O | – | RNA-seq, item: novel.407 mRNA | mouse traumatic brain injury, frontal cortex and hippocampus | dose not given | reference: TBI plus compound vs TBI | log2 fold change | 1.32
O=C(O)/C=C/C(=O)O.Oc1cccc2[nH]cc(CCNC3CCCCC3)c12 | – | – | C57BL/6J mice | subcutaneous, 10 mg/kg | reference: pre-session baseline | body temperature change | -0.3 ± 0.1 °C
CN1CC[C@]23c4c5ccc(O)c4O[C@H]2[C@@H](OS(=O)(=O)O)C=C[C@H]3[C@H]1C5 | – | antinociception, hot-water tail withdrawal | STZ-diabetic Sprague-Dawley rats | intraperitoneal | – | ED50 | 0.35 mg/kg
C=CCNCCc1c[nH]c2cccc(O)c12.C=CCNCCc1c[nH]c2cccc(O)c12.O=C(O)/C=C/C(=O)O | – | – | C57BL/6J mice | subcutaneous, 0.3 mg/kg | reference: pre-session baseline | body temperature change | -0.2 ± 0.1 °C
C[C@H]1CN(c2n[nH]c3nc(N[C@H]4CC[C@H](NS(=O)(=O)CCC(F)(F)F)CC4)ncc23)CCO1 | MAPK14 (Homo sapiens, UniProt Q16539) | Kinobeads competition | HEK293, K562, placenta lysate | 0.8 µM, unit not given | reference: vehicle | remaining binding | 0.69
CC(C)(C)NCCc1c[nH]c2cccc(O)c12.CC(C)(C)NCCc1c[nH]c2cccc(O)c12.O=C(O)/C=C/C(=O)O | – | – | C57BL/6J mice | subcutaneous, 3 mg/kg | reference: pre-session baseline | body temperature change | 0 ± 0.1 °C
C[C@]12CC[C@H]3[C@@H](CC=C4CC(O)CC[C@@]43CO)[C@@H]1CCC2O (stereo partly shown) | – | – | GAN diet MASH rats | ip, 20 mg/kg, two weeks | reference: GAN vehicle | plasma AST level | decreased
CC(C)NCCc1c[nH]c2cccc(O)c12.O=C(O)/C=C/C(=O)O | – | – | C57BL/6J mice | subcutaneous, 30 mg/kg | reference: pre-session baseline | body temperature change | -1.7 ± 0.2 °C
CN1CC[C@]23c4c5ccc(O)c4O[C@H]2[C@@H](O)C=C[C@H]3[C@H]1C5 | – | antinociception, hot-water tail withdrawal | STZ-diabetic Sprague-Dawley rats | intraperitoneal | – | ED50 | 6.47 mg/kg
